Published values of several laboratories.
Every numbered part comes from another study and shows a few of its results, in no order. Changes are numbered by the printed parent chain.

Series 1
Target: Histone acetyltransferase KAT6A, winged helix 2, GST fusion (KAT6A, Homo sapiens, UniProt Q92794, residues 85-181)
Method: protein binding microarray
Molecule type: double-stranded DNA, one strand shown
Matrix: in vitro
Concentration: not given
Setting: 8-mer, flanks averaged, mean of 2 arrays, mostly near background
Baseline: not given
Direction: higher = stronger binding
Residues (chain): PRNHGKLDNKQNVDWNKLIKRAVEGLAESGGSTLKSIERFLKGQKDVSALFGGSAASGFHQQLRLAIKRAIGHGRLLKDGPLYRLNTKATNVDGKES
Strand | E-score
CGGACACC | -0.0874
GTCGTACA | -0.15
GTAATTAC | 0.0118
GTAACTAC | -0.0924
CTCGAGGC | 0.151
AAGAACGT | -0.0745
AAAGAAAG | -0.0755
AGCGCGAC | -0.0625
ACACTTAG | -0.161
TCATACGA | -0.0258
ACTCTTCA | -0.073
CTAACGCC | 0.0217
GGACTTAC | -0.119
ACTACCGA | -0.0527
AGCGGGCC | 0.0598
GTCTCTGA | 0.0216
TATGCATA | -0.144
AGAACAGG | -0.206
CTCGGTCA | -0.0427
CTGAACGA | -0.127
GCGGCGAC | 0.214
CAGCATGG | 0.176
CCCTTTTC | 0.0538
TCCCACAA | 0.176
ATGTGCGC | 0.0488

Series 2
Target: Fragile X messenger ribonucleoprotein 1, C-terminal low-complexity region (Fmr1, Mus musculus, UniProt P35922)
Method: RNA Bind-n-Seq
Molecule type: RNA
Matrix: in vitro
Concentration: 200 nM
Setting: whole 134-nt RNA, ends assumed
With: 150 mM LiCl
Baseline: input library
Direction: higher = stronger binding
Library: 7-deaza-guanosine replaces G
Strand | log2 enrichment
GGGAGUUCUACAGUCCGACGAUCGCAGGAAGUAAAAACAAAUGGAAAUGCUUCGGAUAGUGGCAGGGGUGAGGGUUGCUAAGGAAAGGGUGGGAUGGGAGUGGGUAAAGAGUUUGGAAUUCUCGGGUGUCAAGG | 1.41
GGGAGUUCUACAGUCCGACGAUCCCUGUGCUACACAUCGUAUGUACCGAAUCGGGGUUUUUGGGGUUUUUUUGGGGAAAGGGGAAAGUAUUAUGUUACGCCGUUCGGAUCUGCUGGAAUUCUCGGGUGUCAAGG | 0.127
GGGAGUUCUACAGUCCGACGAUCAGUCCUGUGCUACACAUCGUAUGUACCGAAUCGGGUUUUUUUGGGAGGGUUUUUGGGAAAGUAUUAUGUUACGCCGUUCGGAUCUGCACUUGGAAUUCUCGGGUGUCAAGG | -1.45
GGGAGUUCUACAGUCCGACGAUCCCUGUGCUACACAUCGUAUGUACCGAAUCAAACCCCCCCAAAUUUUUUUAAACCCCCAAAAAAGUAUUAUGUUACGCCGUUCGGAUCUGCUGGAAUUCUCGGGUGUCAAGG | 1.61
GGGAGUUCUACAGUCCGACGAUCACCAUGCAGGUGGGCAUCUUUGGGAAGUGGGGCAAGGGGGGGAUAGGAAGGGGGGUAACACUUUGGGAACAGGUGGUCCCAGGUCGUUUCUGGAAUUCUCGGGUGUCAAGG | 1.25
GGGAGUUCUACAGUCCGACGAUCUGGGAGGUGGAUUUUGUUUAUUUUUUUAGCUCAUUUCCAGGGGUGGGAAUUUUUUUUUAAUAUGUGUCCUGAAUAAAGUUGUUUUUGAAAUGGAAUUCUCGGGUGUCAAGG | 0.274
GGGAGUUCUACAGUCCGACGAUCUGCCCAGCUCAUGCUGGACCACCUGAAGAACAGUGCUCCCAGCAAGCGAGAGAUUGCCCAGCUCAAGAACCAGGUAUCCACAGAGAGCACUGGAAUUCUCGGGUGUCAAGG | 0.179
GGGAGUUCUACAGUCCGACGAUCUCCUAGUCCUAGGAAAACUCCAGUUGCCAGUGAUCAACGCCGUAGGUCCUGCAAAACAGCCCCUGCUUCCAGCAGCAAAUCUCAGACAGAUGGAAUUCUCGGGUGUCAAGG | -0.316

Series 3
Target: CCND1, cyclin fold, Cln2 fusion (human)
Method: yeast growth competition, sequencing
Matrix: yeast
Setting: weak parent motif
Baseline: not given
Direction: higher = stronger binding
Starting sequence: WEE2 docking peptide (human); KELRQKLNFSYCE; partner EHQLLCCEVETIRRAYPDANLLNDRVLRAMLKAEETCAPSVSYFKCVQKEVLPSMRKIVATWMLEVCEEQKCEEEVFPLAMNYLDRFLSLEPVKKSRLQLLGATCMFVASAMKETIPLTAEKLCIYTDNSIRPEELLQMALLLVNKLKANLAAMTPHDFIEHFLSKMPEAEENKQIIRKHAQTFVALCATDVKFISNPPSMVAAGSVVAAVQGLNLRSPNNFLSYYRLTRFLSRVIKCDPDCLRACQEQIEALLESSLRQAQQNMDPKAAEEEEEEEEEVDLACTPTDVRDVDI
Substitution | normalised enrichment score
L7A | -0.0983
K1A | 0.0654
L3A | 0.186
F9A | 0.182
S10A | 0.162
Y11A | 0.138
C12A | -0.236

Series 4
Target: Centromere-binding protein 1, full length, N-terminal tag (CBF1, Saccharomyces cerevisiae, UniProt P17106, residues 1-351)
UniProt P17106, sequence (whole entry, looked up): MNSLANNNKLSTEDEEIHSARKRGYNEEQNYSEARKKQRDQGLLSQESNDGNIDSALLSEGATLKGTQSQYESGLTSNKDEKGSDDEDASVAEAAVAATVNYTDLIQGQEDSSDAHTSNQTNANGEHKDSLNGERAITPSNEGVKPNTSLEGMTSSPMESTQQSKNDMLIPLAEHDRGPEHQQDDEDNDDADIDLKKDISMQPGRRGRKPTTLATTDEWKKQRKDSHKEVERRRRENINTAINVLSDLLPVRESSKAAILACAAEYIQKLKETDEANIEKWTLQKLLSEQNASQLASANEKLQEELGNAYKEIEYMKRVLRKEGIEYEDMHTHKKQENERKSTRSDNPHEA
Method: protein-binding microarray
Molecule type: double-stranded DNA, one strand shown
Matrix: in vitro
Concentration: 0.8 µM
Setting: whole 60-bp probe, no competitor
Direction: higher = stronger binding
Strand | fluorescence intensity [a.u.]
TGTACGAAGCTATGACACGTGATTATAGTAGTTAGGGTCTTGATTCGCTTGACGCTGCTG | 11900
GAATGAGTCCGCACTCACGGGACGAAGACGAAGTAGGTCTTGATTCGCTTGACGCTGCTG | 730
GAAGAGGAAAATAGGCACATGATTCCTTTTCACTAGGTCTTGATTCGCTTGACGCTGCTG | 1370
GAAAAAACGCACAGGGTGATGATCTGCAAATTCTAGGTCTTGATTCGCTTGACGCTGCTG | 569
CTACGTTTTCCTCTTTTGGTGATGAGCAGCATCTTCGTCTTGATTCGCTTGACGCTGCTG | 552
GAAGTAAGAAAGCAGCACGAGCTCAACAAGACTTAGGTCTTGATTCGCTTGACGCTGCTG | 668
CTAATTTAGAGTTTTCACGTTATGTGACCATCTTTCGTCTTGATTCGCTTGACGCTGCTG | 703
GAACGCGAAAATGACCACGCGAAAAGAAAAATTTAGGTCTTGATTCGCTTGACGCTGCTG | 573
GAACAAAGTTCATATCACGATAAACGTCAGTTCTAGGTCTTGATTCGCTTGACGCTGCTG | 542
CTACGTGCCACTGTGGCCGTGTCAGGTCACGTGTTCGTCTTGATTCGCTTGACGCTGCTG | 19200
GAATGCTGCTTGTTTCAGGTGATGTGAACAACGTAGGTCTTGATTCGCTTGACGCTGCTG | 695
GAAGGAAAGTTTCGACACGTTCATTAGGTTCTATAGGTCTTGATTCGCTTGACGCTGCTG | 564
GAACTAAACAATGCAAACGTGTTTTTTCACTTGTAGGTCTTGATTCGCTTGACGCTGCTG | 549
CTATTAACAGATCTGGACGTGATTTTTTTTTTTTTCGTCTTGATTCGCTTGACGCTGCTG | 573
CTATAAATTATTGCGCACGTTTTTCGGTGTGGTTTCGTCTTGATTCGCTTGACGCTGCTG | 962
GAACATTGGCTTGTGATCATCATCGAAATTGATTAGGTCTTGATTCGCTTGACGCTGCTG | 645
CTAATTCAACAACACCACCAGCAGCTCTGATTTTTCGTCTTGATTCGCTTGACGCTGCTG | 519
GAAATCCGAGTATGGCGCGTGAAGAAAATGAAGTAGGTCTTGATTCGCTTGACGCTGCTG | 582
CTAGTTAATATTGATCACGAGAATAACAGATCTTTCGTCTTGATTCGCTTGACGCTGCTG | 2270

Series 5
Target: ABI1, truncated, D143A, DHFR fusion (Arabidopsis thaliana)
Method: DHFR PCA, deep sequencing
Matrix: yeast
Setting: methotrexate growth selection, single substitutions
With: (+)-ABA 0.032 µM
Baseline: wild-type fitted maximum
Direction: higher = stronger binding
Starting sequence: PYL1, truncated, DHFR fusion (Arabidopsis thaliana); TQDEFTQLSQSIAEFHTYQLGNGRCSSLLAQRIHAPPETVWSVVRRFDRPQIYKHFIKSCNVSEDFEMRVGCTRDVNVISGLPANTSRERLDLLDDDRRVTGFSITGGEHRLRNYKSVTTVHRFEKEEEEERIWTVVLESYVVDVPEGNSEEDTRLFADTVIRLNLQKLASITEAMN
Substitution | relative binding score
K116I | -3.24%
T6H | 34.5%
V121R | 0.165%
V44N | -0.545%
V136G | -1.69%
I52F | 1.72%
L28Q | -0.344%
T17P | 0.952%
L8A | 8.26%
T160Y | 18.1%
K54D | -5.18%
R113P | 64.3%
H122M | 2.13%
Q10S | 39.2%
E152L | 1.75%
K126E | 41.8%
T106G | 1.36%

Excerpt of the above (series 4):
Strand | fluorescence intensity [a.u.]
GAAAAAACGCACAGGGTGATGATCTGCAAATTCTAGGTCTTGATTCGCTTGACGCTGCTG | 569
CTAATTCAACAACACCACCAGCAGCTCTGATTTTTCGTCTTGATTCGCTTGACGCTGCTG | 519
CTACGTTTTCCTCTTTTGGTGATGAGCAGCATCTTCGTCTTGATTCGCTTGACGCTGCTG | 552
GAACAAAGTTCATATCACGATAAACGTCAGTTCTAGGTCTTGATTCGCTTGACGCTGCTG | 542
CTAGTTAATATTGATCACGAGAATAACAGATCTTTCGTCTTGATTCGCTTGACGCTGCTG | 2270
GAAGAGGAAAATAGGCACATGATTCCTTTTCACTAGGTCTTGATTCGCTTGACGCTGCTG | 1370
